Measured values gathered from unrelated publications.
Every numbered part comes from another study and shows a few of its results, in no order.
Chain of UniProt P07333 (whole entry, looked up): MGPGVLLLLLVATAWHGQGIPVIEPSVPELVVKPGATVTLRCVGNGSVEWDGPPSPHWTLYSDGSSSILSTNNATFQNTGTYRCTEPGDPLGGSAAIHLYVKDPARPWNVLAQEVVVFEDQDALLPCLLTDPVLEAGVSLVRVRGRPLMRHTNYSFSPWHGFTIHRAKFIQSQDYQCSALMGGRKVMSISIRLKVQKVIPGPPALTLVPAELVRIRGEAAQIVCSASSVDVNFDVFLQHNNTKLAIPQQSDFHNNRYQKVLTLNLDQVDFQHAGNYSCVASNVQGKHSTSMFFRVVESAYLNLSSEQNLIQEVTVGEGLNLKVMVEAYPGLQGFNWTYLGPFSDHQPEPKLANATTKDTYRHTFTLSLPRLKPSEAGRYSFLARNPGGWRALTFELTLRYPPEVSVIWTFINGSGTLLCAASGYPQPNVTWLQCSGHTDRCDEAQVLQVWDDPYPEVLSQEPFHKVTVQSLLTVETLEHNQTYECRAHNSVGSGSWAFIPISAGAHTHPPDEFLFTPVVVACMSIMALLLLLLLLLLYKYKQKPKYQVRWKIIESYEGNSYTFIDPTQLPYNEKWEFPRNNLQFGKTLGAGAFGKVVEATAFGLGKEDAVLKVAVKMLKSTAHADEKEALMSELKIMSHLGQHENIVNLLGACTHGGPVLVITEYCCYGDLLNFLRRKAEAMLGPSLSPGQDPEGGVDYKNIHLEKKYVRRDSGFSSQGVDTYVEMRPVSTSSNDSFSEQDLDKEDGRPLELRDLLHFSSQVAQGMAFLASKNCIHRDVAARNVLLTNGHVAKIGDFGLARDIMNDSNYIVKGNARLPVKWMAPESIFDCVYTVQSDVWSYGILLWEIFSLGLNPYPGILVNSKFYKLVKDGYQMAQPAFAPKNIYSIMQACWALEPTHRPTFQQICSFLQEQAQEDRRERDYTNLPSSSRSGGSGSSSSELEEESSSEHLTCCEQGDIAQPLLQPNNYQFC
Chain of UniProt P00519 (whole entry, unmodified, looked up): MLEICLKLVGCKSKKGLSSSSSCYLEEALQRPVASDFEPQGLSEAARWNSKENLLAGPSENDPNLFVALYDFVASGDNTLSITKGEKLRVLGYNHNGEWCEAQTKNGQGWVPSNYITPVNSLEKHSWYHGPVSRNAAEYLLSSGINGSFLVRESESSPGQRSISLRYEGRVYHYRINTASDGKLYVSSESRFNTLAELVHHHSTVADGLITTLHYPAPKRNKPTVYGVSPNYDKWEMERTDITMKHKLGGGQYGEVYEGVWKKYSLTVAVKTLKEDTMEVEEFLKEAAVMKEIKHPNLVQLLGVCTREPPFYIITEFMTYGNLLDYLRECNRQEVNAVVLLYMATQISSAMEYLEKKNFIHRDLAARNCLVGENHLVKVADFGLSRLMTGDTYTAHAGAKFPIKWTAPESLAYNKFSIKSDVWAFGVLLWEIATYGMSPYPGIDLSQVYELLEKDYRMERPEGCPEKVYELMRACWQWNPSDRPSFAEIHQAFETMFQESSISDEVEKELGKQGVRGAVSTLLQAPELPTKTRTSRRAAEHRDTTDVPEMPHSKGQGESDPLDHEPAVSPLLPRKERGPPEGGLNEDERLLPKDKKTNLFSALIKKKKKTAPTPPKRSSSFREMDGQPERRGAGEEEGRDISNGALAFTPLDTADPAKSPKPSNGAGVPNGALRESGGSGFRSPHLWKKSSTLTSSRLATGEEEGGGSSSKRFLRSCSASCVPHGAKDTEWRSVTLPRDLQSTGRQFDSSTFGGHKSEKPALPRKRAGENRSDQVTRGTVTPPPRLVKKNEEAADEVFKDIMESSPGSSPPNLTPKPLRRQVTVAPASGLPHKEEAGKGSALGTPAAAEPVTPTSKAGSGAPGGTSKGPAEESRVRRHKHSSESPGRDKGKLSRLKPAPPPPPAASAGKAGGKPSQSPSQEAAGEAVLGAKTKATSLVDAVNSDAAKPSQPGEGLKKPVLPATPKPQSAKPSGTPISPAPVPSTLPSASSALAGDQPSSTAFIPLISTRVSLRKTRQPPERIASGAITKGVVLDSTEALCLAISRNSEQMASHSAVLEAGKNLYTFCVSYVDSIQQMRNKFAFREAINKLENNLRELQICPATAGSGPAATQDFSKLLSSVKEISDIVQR
Chain of UniProt O43353 (whole entry, looked up): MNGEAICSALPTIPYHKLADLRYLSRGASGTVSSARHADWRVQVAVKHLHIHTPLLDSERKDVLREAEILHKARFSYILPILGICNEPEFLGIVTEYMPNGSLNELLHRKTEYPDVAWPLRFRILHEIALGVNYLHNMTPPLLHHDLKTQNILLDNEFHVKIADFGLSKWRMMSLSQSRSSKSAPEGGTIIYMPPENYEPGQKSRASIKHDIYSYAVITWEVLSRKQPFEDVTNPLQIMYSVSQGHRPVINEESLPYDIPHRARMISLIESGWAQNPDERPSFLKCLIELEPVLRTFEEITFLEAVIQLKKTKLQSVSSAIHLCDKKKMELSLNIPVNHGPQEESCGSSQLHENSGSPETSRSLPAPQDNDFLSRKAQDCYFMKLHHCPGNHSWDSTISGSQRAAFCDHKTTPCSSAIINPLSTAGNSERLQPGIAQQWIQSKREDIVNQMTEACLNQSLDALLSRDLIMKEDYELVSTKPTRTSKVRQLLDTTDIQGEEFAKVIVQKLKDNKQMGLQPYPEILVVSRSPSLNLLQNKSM
Chain of UniProt P50750 (whole entry, looked up): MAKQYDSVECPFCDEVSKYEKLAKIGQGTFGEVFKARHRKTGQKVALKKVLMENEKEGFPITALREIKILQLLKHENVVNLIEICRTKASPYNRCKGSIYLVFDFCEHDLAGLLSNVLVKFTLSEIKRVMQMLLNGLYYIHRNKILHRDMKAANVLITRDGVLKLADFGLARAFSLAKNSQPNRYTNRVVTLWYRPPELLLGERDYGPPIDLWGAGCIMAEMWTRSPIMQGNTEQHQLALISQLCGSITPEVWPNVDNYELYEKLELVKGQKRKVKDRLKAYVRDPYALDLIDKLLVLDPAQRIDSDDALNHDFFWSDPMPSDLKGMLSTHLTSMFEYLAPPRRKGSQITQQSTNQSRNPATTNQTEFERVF
Chain of UniProt P49840 (whole entry, looked up): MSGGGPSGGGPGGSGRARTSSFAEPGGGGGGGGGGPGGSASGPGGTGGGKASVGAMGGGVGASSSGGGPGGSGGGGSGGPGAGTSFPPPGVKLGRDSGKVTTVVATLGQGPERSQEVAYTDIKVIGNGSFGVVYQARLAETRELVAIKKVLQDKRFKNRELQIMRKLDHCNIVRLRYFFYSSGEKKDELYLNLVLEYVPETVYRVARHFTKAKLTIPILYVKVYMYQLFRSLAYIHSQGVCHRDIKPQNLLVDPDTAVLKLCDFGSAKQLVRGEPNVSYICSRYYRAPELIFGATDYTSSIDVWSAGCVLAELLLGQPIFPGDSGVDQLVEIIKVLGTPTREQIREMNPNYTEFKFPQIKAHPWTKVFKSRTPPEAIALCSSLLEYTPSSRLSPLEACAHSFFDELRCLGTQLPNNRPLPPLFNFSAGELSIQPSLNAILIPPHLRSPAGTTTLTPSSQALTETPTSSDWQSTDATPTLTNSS

Block 1 — method: RNA Bind-n-Seq; form: RNA; sample: in vitro; concentration: 200 nM; notes: whole 134-nt RNA, ends assumed; with: 150 mM KCl; relative to: input library; reading: higher = stronger binding
Target: Fragile X messenger ribonucleoprotein 1, C-terminal low-complexity region (Fmr1, Mus musculus, UniProt P35922)
Constant ends, left off below: GGGAGUUCUACAGUCCGACGAUC … UGGAAUUCUCGGGUGUCAAGG
Sequence | log2 enrichment
CCUGUGCUACACAUCGUAUGUACCGAAUCGGGUUUUUUGGGGUUUUUUGGGGUUUUUUGGAAAGUAUUAUGUUACGCCGUUCGGAUCUGC | -0.224
UCAAGUCCUGUGCUACACAUCGUAUGUACCGAAUCGGAAAGGAAAAAGGUUUGGAAAGUAUUAUGUUACGCCGUUCGGAUCUGCACUUCC | -0.992
UUCCUCAAGUCCUGUGCUACACAUCGUAUGUACCGAAUCGGAGGUGGUGGAAAGUAUUAUGUUACGCCGUUCGGAUCUGCACUUCCAGCA | -0.647
CUCAAGUCCUGUGCUACACAUCGUAUGUACCGAAUCGGGGAAGGAAGGGAAGGGAAAGUAUUAUGUUACGCCGUUCGGAUCUGCACUUCC | 0.0631
AAGUCCUGUGCUACACAUCGUAUGUACCGAAUCGGGGUUUGGGGUUUGGUUUGGGGAAAGUAUUAUGUUACGCCGUUCGGAUCUGCACUU | 0.213
CCCAUCAUGUUCAGAGGUGAGGUCCGUCUGAAUGUCGAAGAGAAGAAGACUCGAGCUGCCAGGGAAGGCGACCGACGAGAUAAUCGCCUU | -1.44
UGGCCCUGGUGGAAUGCGGGGAGGAAGAGGUGGCCUCAUGGAUCGUGGUGGUCCCGGUGGAAUGUUCAGAGGUGGCCGUGGUGGAGACAG | -0.0624
ACCCUGCAGGUGGGCAUCUUUGGGAAGUGGGGCAAGGGGGGGAUAGGGAGGGGGGUAACACUUUGGGAACAGGUGGUCCCAGGUCGUUUC | 1.04

Block 2 — concentration: 1 µM
SMILES: O=S(=O)(NC1CCC(c2cc(F)ccc2F)(S(=O)(=O)c2ccc(Cl)cc2)CC1)C(F)(F)F (stereo not shown)
target | test | remaining binding
CSF1R (Homo sapiens, UniProt P07333) | cell-free assay, competition with immobilised ligand | 100%
MAP3K5 (Homo sapiens, UniProt Q99683) | cell-free assay, competition with immobilised ligand | 80%
CDK9 (Homo sapiens, UniProt P50750) | cell-free assay, competition with immobilised ligand | 91%
Tyrosine-protein kinase ABL1, phosphorylated (ABL1, Homo sapiens, UniProt P00519, F317I) | binding | 100%
RIPK2 (Homo sapiens, UniProt O43353) | cell-free assay, competition with immobilised ligand | 84%
GSK3A (Homo sapiens, UniProt P49840) | cell-free assay, competition with immobilised ligand | 87%
LRRK2 (Homo sapiens, UniProt Q5S007, G2019S) | cell-free assay, competition with immobilised ligand | 100%

Block 3 — read-out: enzyme activity; mode: inhibitor; concentration: 0.5 µM; relative to: control
Target: Protein kinase C zeta type (PRKCZ, Homo sapiens, UniProt Q05513)
Chain of UniProt Q05513 (whole entry, looked up): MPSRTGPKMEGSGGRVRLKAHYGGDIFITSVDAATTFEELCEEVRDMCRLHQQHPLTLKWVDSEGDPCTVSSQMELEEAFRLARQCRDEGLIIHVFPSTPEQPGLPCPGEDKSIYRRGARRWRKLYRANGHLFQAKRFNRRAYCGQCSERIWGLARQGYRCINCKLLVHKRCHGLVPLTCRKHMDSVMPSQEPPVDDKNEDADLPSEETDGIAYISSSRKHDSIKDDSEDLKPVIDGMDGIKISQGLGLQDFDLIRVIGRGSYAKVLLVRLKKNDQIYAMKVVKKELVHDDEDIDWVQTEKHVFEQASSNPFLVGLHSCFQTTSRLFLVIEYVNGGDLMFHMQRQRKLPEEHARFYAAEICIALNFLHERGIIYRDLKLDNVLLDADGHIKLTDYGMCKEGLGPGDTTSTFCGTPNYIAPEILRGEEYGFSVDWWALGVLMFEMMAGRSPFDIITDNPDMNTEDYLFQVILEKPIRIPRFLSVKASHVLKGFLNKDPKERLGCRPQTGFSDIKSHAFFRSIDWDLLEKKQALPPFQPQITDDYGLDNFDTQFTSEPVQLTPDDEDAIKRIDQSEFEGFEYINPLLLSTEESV
SMILES | remaining activity [%]
C[C@@H]1CCN(C(=O)CC#N)C[C@@H]1N(C)c1ncnc2[nH]ccc12 | 91.7
COc1cc2c(cc1OC)-c1[nH]nc(Nc3cccc(F)c3)c1C2 | 99.7
Nc1cccc(-c2cc3c(Oc4cccc(O)c4)ncnc3[nH]2)c1 | 94
N#C/C(=C\c1ccc(O)c(O)c1)C(=O)NCc1ccccc1 | 104
Cc1cc2ncc(-c3ccccc3)nc2cc1C | 88.6
O=C(NC(NC(=S)Nc1ccc(F)c([N+](=O)[O-])c1)C(Cl)(Cl)Cl)C(c1ccccc1)c1ccccc1 (stereo not shown) | 98

Other studies, line by line
Compound | system | endpoint | value
CCC[C@@H]1NC(=O)CSC[C@@H](C(=O)OCC)N(C)C(=O)[C@H](CC(C)C)NC(=O)[C@H](C)N(C)C(=O)[C@@H](CC(C)C)NC(=O)[C@H](C)N(C)C(=O)[C@H]2CCCN2C(=O)[C@H](CC(C)C)NC(=O)CN(C)C1=O | hydrocarbon/water | logD | -0.0142
